# Measured values gathered from unrelated publications.
# Lines come from different studies, so protocols differ. ± marks the error that the study gave.
# MTAP: S-methyl-5'-thioadenosine phosphorylase (MTAP, Homo sapiens, UniProt Q13126)
# Sequence of UniProt Q13126 (whole entry, looked up): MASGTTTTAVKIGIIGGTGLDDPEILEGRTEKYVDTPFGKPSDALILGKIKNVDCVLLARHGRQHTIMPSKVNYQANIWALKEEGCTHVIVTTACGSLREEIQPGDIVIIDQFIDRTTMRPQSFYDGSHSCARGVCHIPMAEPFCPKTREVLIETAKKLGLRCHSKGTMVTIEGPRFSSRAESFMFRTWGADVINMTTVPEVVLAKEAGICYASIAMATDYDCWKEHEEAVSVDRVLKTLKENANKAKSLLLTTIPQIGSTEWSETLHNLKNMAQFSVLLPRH
# B1: α-TTP I202D/M209D; sequence looked up; chain MAEARSQPSAGPQLNALPDHSPLLQPGLAALRRRAREAGVPLAPLPLTDSFLLRFLRARDFDLDLAWRLLKNYYKWRAECPEISADLHPRSIIGLLKAGYHGVLRSRDPTGSKVLIYRIAHWDPKVFTAYDVFRVSLITSELIVQEVETQRNGIKAIFDLEGWQFSHAFQITPSVAKKIAAVLTDSFPLKVRGIHLINEPVDFHAVFSDIKPFLTEKIKERIHMHGNNYKQSLLQHFPDILPLEYGGEEFSMEDICQEWTNFIMKSEDYLSSISESIQ
# B2: Pcf11 CID D117A; chain DTEVIVKDFNSILEELTFNSRPIITTLTKLAEENISCAQYFVDAIESRIEKCMPKQKLYAFYALDSICKNVGSPYTIYFSRNLFNLYKRTYLLVDNTTRTKLINMFKLWLNPNATGLPLFEGSALEKIEQFLIKAS
# B3: UGT1A9 (Homo sapiens, UniProt O60656); chain GKLLVVPMDGSHWFTMRSVVEKLILRGHEVVVVMPEVSWQLGRSLNCTVKTYSTSYTLEDLDREFKAFAHAQWKAQVRSIYSLLMGSYNDIFDLFFSNCRSLFKDKKLVEYLKESSFDAVFLDPFDNCGLIVAKYFSLPSVVFARGILCHYLEEGAQCPAPLSYVPRILLGFSDAMTFKERVRNHIMHLEEHLLCHRFFKNALEIASEILQTPVTEYDLYSHTSIWLLRTDFVLDYPKPVMPNMIFIGGINCHQGKPLPMEFEAYINASGEHGIVVFSLGSMVSEIPEKKAMAIADALGKIPQTVLWRYTGTRPSNLANNTILVKWLPQNDLLGHPMTRAFITHAGSHGVYESICNGVPMVMMPLFGDQMDNAKRMETKGAGVTLNVLEMTSEDLENALKAVINDKSYKENIMRLSSLHKDRPVEPLDLAVFWVEFVMRHKGAPHLRPAAHDLTWYQYHSLDVIGFLLAVVLTVAFITFKCCAYGYRKCLGKKGRVKKAHKSKTH
# B4: α-TTP F165D; sequence looked up; chain MAEARSQPSAGPQLNALPDHSPLLQPGLAALRRRAREAGVPLAPLPLTDSFLLRFLRARDFDLDLAWRLLKNYYKWRAECPEISADLHPRSIIGLLKAGYHGVLRSRDPTGSKVLIYRIAHWDPKVFTAYDVFRVSLITSELIVQEVETQRNGIKAIFDLEGWQDSHAFQITPSVAKKIAAVLTDSFPLKVRGIHLINEPVIFHAVFSMIKPFLTEKIKERIHMHGNNYKQSLLQHFPDILPLEYGGEEFSMEDICQEWTNFIMKSEDYLSSISESIQ
# Sequence of UniProt Q06393 (whole entry, unmodified, looked up): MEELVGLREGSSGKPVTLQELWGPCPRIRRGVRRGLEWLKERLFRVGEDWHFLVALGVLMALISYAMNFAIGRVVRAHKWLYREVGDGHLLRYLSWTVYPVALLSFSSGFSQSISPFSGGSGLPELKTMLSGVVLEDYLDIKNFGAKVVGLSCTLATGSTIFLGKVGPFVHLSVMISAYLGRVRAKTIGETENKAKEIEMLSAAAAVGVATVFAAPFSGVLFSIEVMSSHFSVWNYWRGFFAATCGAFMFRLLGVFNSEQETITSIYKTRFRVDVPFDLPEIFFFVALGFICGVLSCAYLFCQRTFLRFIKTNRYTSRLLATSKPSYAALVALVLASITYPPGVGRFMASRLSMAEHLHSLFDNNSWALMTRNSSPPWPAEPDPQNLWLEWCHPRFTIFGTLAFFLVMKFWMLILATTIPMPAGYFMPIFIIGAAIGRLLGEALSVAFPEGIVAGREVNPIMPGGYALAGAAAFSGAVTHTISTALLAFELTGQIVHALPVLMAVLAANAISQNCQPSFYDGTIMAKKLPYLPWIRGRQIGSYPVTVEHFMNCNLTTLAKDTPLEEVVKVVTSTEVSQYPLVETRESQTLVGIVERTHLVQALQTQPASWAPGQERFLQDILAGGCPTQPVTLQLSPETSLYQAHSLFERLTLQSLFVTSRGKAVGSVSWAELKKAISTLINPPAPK
# Sequence of UniProt Q15126 (whole entry, looked up): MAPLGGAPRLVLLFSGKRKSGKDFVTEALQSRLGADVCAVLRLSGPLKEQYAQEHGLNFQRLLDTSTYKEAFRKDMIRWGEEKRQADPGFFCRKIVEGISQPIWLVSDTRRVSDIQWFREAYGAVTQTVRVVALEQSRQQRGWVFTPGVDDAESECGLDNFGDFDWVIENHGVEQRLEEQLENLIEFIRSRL
# Sequence of UniProt Q9Y253 (whole entry, looked up): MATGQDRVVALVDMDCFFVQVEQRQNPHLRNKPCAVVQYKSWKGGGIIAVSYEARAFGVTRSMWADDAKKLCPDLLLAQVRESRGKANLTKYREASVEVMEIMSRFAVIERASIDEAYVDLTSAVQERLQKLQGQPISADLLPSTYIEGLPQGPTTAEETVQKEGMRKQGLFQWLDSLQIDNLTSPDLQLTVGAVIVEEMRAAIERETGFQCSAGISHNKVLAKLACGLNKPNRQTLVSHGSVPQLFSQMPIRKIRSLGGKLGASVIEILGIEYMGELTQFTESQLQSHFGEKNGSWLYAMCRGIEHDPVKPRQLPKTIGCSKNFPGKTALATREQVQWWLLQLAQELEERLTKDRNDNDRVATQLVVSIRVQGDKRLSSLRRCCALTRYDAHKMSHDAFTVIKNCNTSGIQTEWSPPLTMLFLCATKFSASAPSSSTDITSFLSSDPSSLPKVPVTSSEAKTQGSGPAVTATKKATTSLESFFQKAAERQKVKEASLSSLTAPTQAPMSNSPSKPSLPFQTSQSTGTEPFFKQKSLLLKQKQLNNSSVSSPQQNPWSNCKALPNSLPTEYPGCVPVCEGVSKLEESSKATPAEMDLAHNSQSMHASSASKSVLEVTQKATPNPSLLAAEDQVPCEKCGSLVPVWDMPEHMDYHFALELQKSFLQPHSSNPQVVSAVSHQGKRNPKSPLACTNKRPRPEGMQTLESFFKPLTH
# Sequence of UniProt P00520 (whole entry, looked up): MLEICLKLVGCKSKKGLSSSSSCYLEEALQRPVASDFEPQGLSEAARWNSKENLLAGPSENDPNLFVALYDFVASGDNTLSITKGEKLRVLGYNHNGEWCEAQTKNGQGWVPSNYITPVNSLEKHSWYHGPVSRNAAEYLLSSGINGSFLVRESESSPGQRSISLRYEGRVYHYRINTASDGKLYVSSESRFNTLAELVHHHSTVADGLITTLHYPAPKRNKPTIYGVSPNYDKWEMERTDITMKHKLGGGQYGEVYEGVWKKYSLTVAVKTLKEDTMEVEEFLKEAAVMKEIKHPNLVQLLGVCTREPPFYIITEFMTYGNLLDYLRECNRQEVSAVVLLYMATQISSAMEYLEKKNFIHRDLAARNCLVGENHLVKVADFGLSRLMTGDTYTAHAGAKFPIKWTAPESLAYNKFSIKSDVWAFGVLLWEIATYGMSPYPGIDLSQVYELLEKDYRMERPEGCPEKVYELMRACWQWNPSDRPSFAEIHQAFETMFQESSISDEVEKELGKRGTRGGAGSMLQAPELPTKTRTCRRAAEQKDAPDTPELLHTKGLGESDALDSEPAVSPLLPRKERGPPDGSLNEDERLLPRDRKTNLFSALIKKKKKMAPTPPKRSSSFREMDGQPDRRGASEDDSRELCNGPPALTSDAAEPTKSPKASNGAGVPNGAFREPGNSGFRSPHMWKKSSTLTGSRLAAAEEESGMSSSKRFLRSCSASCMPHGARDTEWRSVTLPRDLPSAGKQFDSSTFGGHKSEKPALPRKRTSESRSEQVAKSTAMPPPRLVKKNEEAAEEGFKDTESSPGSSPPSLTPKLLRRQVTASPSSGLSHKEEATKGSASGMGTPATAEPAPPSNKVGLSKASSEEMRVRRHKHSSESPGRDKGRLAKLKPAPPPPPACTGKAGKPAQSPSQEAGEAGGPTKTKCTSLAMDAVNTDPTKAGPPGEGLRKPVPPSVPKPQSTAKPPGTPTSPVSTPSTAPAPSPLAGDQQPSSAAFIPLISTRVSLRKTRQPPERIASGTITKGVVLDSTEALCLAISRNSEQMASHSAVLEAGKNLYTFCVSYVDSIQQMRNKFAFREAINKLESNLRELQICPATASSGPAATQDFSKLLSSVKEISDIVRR
# Sequence of UniProt P07700 (whole entry, looked up): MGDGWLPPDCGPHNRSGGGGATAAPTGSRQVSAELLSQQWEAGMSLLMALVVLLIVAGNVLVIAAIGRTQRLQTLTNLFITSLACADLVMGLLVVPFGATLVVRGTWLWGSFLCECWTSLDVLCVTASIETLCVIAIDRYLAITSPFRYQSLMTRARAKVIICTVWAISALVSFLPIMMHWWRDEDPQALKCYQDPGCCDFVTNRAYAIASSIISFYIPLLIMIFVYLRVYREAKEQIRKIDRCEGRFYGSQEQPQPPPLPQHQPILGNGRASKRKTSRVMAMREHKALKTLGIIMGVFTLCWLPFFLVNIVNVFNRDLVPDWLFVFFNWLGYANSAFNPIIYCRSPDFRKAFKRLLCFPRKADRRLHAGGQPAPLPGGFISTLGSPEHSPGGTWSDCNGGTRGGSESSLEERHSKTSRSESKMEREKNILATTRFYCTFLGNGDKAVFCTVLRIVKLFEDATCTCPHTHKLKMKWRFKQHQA
Molecule,target or system,assay,system,conditions,endpoint,result
B1 (α-TTP I202D/M209D),alpha-tocopherol transfer protein variants,"binding, fluorescence titration",,added: NBD-Toc,Kd,0.025 µM
CCCC(=O)OC[C@H](COP(=O)(O)O[C@@H]1[C@H](O)[C@H](O)[C@@H](OP(=O)(O)O)[C@H](OP(=O)(O)O)[C@H]1O)OC(=O)CCC,"Tyrosine-protein kinase ABL1, SH2 domain (Abl1, Mus musculus, UniProt P00520)",HSQC NMR titration,,"SH2 domain, 135 mM KCl",Kd,800 ± 80 µM
B2 (Pcf11 CID D117A),Saccharomyces cerevisiae CTD-binding protein,fluorescence anisotropy competition,,"pH 7.4, second binding event, added: four-heptad Ser2P CTD peptide",Kd,430 µM
[3H]dihydroalprenolol,"ADRB1 (Meleagris gallopavo, UniProt P07700)","radioligand, saturation binding",DDM-solubilised E. coli membranes,"wild-type receptor, turkey",Kd,0.00192 ± 7e-05 µM
CIKVAVS,,,"peptide, human polyclonal IgM RF STR","concentration not given, 5 µg/mL mAb II-481 coated, added: RF at 50% max binding concentration",inhibition,0%
CSC[C@H]1CN(Cc2c[nH]c3c(N)ncnc23)C[C@@H]1O,MTAP,isothermal titration calorimetry,,"pH 7.4, 25 °C, apo enzyme, first site set",Kd,0.04 ± 0.01 µM
Nc1ncnc2c1ncn2[C@H]1C[C@H](O)[C@@H](COP(=O)(O)OP(=O)(O)OP(=O)(O)O)O1,"DNA polymerase eta (POLH, Homo sapiens, UniProt Q9Y253)","nucleotide incorporation, substrate",,"pH 8.0, 37 °C, opposite undamaged dT",Kd,7.9 ± 0.8 µM
GAGUUGAGUUGAGUUGAGUUGAGUUGAGUUGAGUUGAGUUGAGUUGAGUUGAGUU (ssRNA; single strand),"mtrB full length assumed R58A (Bacillus subtilis, UniProt P19466)",filter binding,,added: L-tryptophan 1 mM,Kd,0.026 ± 0.003 µM
CCCCCCCC(=O)OC[C@H](COP(=O)(O)O[C@H]1[C@H](O)[C@@H](O)[C@H](OP(=O)(O)O)[C@@H](OP(=O)(O)O)[C@H]1O)OC(=O)CCCCCCC,"Pleckstrin homology domain-containing family A member 7 (Homo sapiens, UniProt Q6IQ23)","binding, ITC",,pH 7.6,Kd,8 µM
B3 (UGT1A9),COc1cc2c(=O)c(-c3ccc(O)cc3)coc2cc1O,steady-state kinetics,,"pH 7.4, 37 °C",Vmax/Km,274 µL/min/mg
B4 (α-TTP F165D),alpha-tocopherol transfer protein variants,"binding, fluorescence titration",,added: NBD-Toc,Kd,0.017 µM
Nc1nc2c(c(=O)[nH]1)NC(CNc1ccc(C(=O)N[C@@H](CCC(=O)N[C@@H](CCC(=O)N[C@@H](CCC(=O)N[C@@H](CCC(=O)N[C@@H](CCC(=O)O)C(=O)O)C(=O)O)C(=O)O)C(=O)O)C(=O)O)cc1)CN2 (mixture of isomers),"Lysine-specific histone demethylase 1A, residues 171-852 (KDM1A, Homo sapiens, UniProt O60341)",back-scattering interferometry,,N-terminal truncated LSD1,Kd,4.02 ± 0.92 µM
Nc1ncnc2nc[nH]c12,MTAP,"binding, isothermal titration calorimetry",,third site of three sequential,Kd,80 ± 80 µM
O=C(O)c1cccnc1Nc1cccc(C(F)(F)F)c1,"Chloride channel protein ClC-Ka, with barttin (Clcnka, Rattus norvegicus, UniProt Q06393, F256A)","chloride current, blocker, voltage clamp",Xenopus oocytes,with barttin,Kd,~142 µM
SGVPDRF,,,"peptide, human polyclonal IgM RF WEAK","concentration not given, 5 µg/mL mAb II-481 coated, added: RF at 50% max binding concentration",inhibition,72%
C[C@@](O)(CCOP(=O)(O)O)CC(=O)O,"PMVK (Homo sapiens, UniProt Q15126)","binding, NMR",,pH 6.5,Kd,6 µM
